Assay results gathered from unrelated publications.
Lines come from different studies, so protocols differ. “And” joins repeats or separate records; there may be more than shown. Numbers after ± are the reported error.
B1: SIRT5 R105A (Homo sapiens, UniProt Q9NXA8); chain ARPSSSMADFRKFFAKAKHIVIISGAGVSAESGVPTFRGAGGYWRKWQAQDLATPLAFAHNPSRVWEFYHYAREVMGSKEPNAGHRAIAECETRLGKQGRRVVVITQNIDELHRKAGTKNLLEIHGSLFKTRCTSCGVVAENYKSPICPALSGKGAPEPGTQDASIPVEKLPRCEEAGCGGLLRPHVVWFGENLDPAILEEVDRELAHCDLCLVVGTSSVVYPAAMFAPQVAARGVPVAEFNTETTPATNRFRFHFQGPCGTTLPEALA
B2: CASP10 (Homo sapiens, UniProt Q92851); chain 1 VKTFLEALPQESWQNKHAGSNGNRATNGAPSLVSRGMQGASANTLNSETSTKRAAVYRMNRNHRGLCVIVNNHSFTSLKDRQGTHKDAEILSHVFQWLGFTVHIHNNVTKVEMEMVLQKQKCNPAHADGDCFVFCILTHGRFGAVYSSDEALIPIREIMSHFTALQCPRLAEKPKLFFIQACQGEEIQPSVSIEAD; chain 2 ALNPEQAPTSLQDSIPAEADFLLGLATVPGYVSFRHVEEGSWYIQSLCNHLKKLVPRMLKFLEKTMEIRGRKRTVWGAKQISATSLPTAISAQTPRPPMRRWSSVS
B3: UGT76G1 (Stevia rebaudiana, UniProt Q6VAB4); chain MENKTETTVRRRRRIILFPVPFQGHINPILQLANVLYSKGFSITIFHTNFNKPKTSNYPHFTFRFILDNDPQDERISNLPTHGPLAGMRIPIINEHGADELRRELELLMLASEEDEEVSCLITDALWYFAQSVADSLNLRRLVLMTSSLFNFHAHVSLPQFDELGYLDPDDKTRLEEQASGFPMLKVKDIKSAYSNWQILKEILGKMIKQTKASSGVIWNSFKELEESELETVIREIPAPSFLIPLPKHLTASSSSLLDHDRTVFQWLDQQPPSSVLYVSFGSTSEVDEKDFLEIARGLVDSKQSFLWVVRPGFVKGSTWVEPLPDGFLGERGRIVKWVPQQEVLAHGAIGAFWTHSGWNSTLESVCEGVPMIFSDFGLDQPLNARYMSDVLKVGVYLENGWERGEIANAIRRVMVDEEGEYIRQNARVLKQKADVSLMKGGSSYESLESLVSYISSL

CC(C)C[C@H](NC(=O)[C@H](Cc1ccc(O)cc1)NC(=O)[C@@H](CCCNC(=N)N)NC(=O)[C@@H](CO)NC(=O)[C@H](Cc1ccccc1)NC(=O)[C@H](CC1CCCCC1)NC(=O)[C@H](CC(=O)O)NC(=O)CN1CCN(CC(=O)O)CCN(CC(=O)O)CCN(CC(=O)O)CC1)C(=O)N[C@@H](Cc1c[nH]c2ccccc12)C(=O)N[C@@H](CO)C(=O)O [copper-64 labelled] — activity concentration (human, liver; concentration not given, 3 h): 10600 Bq/mL and 17100 Bq/mL and 17300 Bq/mL and 11800 Bq/mL and 20400 Bq/mL and 12100 Bq/mL
B1 (SIRT5 R105A) — kcat (CSCC[C@H](NC(=O)[C@H](CC(C)C)NC(=O)[C@H](CCCCNC(C)=O)NC(=O)[C@H](CCCCN)NC(=O)[C@H](Cc1c[nH]cn1)NC(=O)[C@H](CCCNC(=N)N)NC(=O)[C@H](CO)NC(=O)[C@@H](NC(=O)[C@H](CO)NC(=O)[C@H](CCC(N)=O)NC(=O)CNC(=O)[C@H](CCCCN)NC(=O)[C@@H](N)CCCCN)[C@@H](C)O)C(=O)N[C@@H](Cc1ccccc1)C(=O)N[C@@H](CCCCN)C(=O)N[C@H](C(=O)N[C@@H](CCC(=O)O)C(=O)NCC(=O)O)[C@@H](C)O; steady-state kinetics; pH 7.5, 37 °C, with: saturating NAD+): 0.0175 ± 0.0021 s⁻¹
rCR (Lodderomyces parapsilosis, UniProt A1X808) — kcat/Km (CC(=O)c1cccc(Cl)c1; steady-state kinetics; pH 7, 30 °C, with: NADH 0.5 mM): 1200 M⁻¹ s⁻¹
B2 (CASP10) — kcat/Km (CC[C@H](C)[C@H](NC(C)=O)C(=O)N[C@@H](CCC(=O)O)C(=O)N1CCC[C@H]1C(=O)N[C@@H](CC(=O)O)C(=O)Nc1ccc2c(C)cc(=O)oc2c1; steady-state kinetics; 37 °C): 4220 M⁻¹ s⁻¹
CCCC[C@H](NC(=O)COCCOCCNC(=O)CN1CCN(CC(=O)O)CCN(CC(=O)O)CC1)C(=O)N[C@H]1CC(=O)NCCCC[C@@H](C(N)=O)NC(=O)[C@H](Cc2c[nH]c3ccccc23)NC(=O)[C@H](CCCNC(=N)N)NC(=O)[C@@H](Cc2ccccc2)NC(=O)[C@H](Cc2c[nH]cn2)NC1=O [technetium-99m labelled] — tissue uptake (C57 mouse, heart; intravenous, 0.037 MBq, 24 h): 0.05 ± 0.01 %ID/g
CC(C)C[C@H](NC(=O)[C@@H](CCCCNC(=O)[C@@H](Cc1ccccc1)NC(=O)CCCCCNC(=O)CN1CCN(CC(=O)O)CCN(CC(=O)O)CCN(CC(=O)O)CC1)NC(=O)[C@H](Cc1ccc(O)cc1)NC(=O)[C@H](CO)NC(=O)[C@H](Cc1c[nH]c2ccccc12)NC(=O)[C@H](Cc1c[nH]cn1)NC(=O)[C@@H]1CCC(=O)N1)C(=O)N[C@@H](CCCNC(=N)N)C(=O)N1CCC[C@H]1C(=O)NCC(N)=O [indium-111 labelled] — tissue uptake (female athymic nude mice, brain; intravenous, 0.037 MBq, 0.5 h): 0.05 ± 0.01 %ID/g
B3 (UGT76G1) — kcat/Km (C=C1C[C@@]23CC[C@H]4[C@@](C)(CCC[C@@]4(C)C(=O)O[C@@H]4O[C@H](CO)[C@@H](O)[C@H](O)[C@H]4O)[C@@H]2CC[C@]1(O[C@@H]1O[C@H](CO)[C@@H](O)[C@H](O)[C@H]1O[C@@H]1O[C@H](CO)[C@@H](O)[C@H](O)[C@H]1O)C3; steady-state kinetics; pH 7.25, 40 °C): 14300 M⁻¹ s⁻¹
CCCC[C@H](NC(=O)CCCCCCCNC(=O)CN1CCN(CC(=O)O)CCN(CC(=O)O)CC1)C(=O)N[C@H]1CC(=O)NCCCC[C@@H](C(N)=O)NC(=O)[C@H](Cc2c[nH]c3ccccc23)NC(=O)[C@H](CCCNC(=N)N)NC(=O)[C@@H](Cc2ccccc2)NC(=O)[C@H](Cc2c[nH]cn2)NC1=O [technetium-99m labelled] — tissue uptake (C57 mouse, kidneys; intravenous, 0.037 MBq, 4 h): 0.26 ± 0.1 %ID/g

Excerpt of the above:
CCCC[C@H](NC(=O)CCCCCCCNC(=O)CN1CCN(CC(=O)O)CCN(CC(=O)O)CC1)C(=O)N[C@H]1CC(=O)NCCCC[C@@H](C(N)=O)NC(=O)[C@H](Cc2c[nH]c3ccccc23)NC(=O)[C@H](CCCNC(=N)N)NC(=O)[C@@H](Cc2ccccc2)NC(=O)[C@H](Cc2c[nH]cn2)NC1=O [technetium-99m labelled] — tissue uptake (C57 mouse, kidneys; intravenous, 0.037 MBq, 4 h): 0.26 ± 0.1 %ID/g
